Measured values collected from several papers.
Lines come from different studies, so protocols differ. Numbers after ± are the reported error.

| SMILES | target or system | test | test system | setting | how to read | endpoint | value |
| --- | --- | --- | --- | --- | --- | --- | --- |
| CC(C)C[C@H](NC(=O)C[C@H](O)[C@H](CC(C)C)NC(=O)[C@H](Cc1c[nH]cn1)NC(=O)CNC(=O)[C@@H](NC(=O)[C@H](C)NC(=O)[C@H](Cc1c[nH]c2ccccc12)NC(=O)[C@H](CCC(N)=O)NC(=O)[C@@H](Cc1ccccc1)NC(=O)COCCOCCNC(=O)CN1CCN(CC(=O)O)CCN(CC(=O)O)CCN(CC(=O)O)CC1)C(C)C)C(N)=O [lutetium-177 labelled] | – | – | female BALB/c nu/nu mice, liver | intravenous, 50 pmol, 24 h | – | tissue uptake | 0.06 ± 0.01 %ID/g |
| CC(C)[C@H](NC(=O)[C@@H](NC(=O)CCCc1cn(CC(O)CN2CCN(CC(=O)O)CCN(CC(=O)O)CCN(CC(=O)O)CC2)nn1)[C@@H](C)O)C(=O)N[C@@H](CCCNC(=N)N)C(=O)N[C@H](C(=O)N[C@@H](CO)C(=O)N[C@@H](C)C(=O)N[C@@H](CC(=O)O)C(=O)O)[C@@H](C)O (stereo partly drawn) | – | – | healthy male humans, plasma | intravenous bolus, 0.08 mmol/kg | – | volume of distribution | 0.237 ± 0.0479 L/kg |
| COc1cccc2c1C(=O)c1c(O)c3c(c(O)c1C2=O)C[C@@](O)(C(=O)CO)C[C@@H]3O[C@H]1C[C@H](NC(=O)[C@@H]2CCCN2C(=O)CN)[C@H](O)[C@H](C)O1 | – | – | healthy mouse, plasma | intravenous, 23.6 mg/kg PhAc-ALGP-Dox | – | AUC | 0.1 µM·h |
| Cn1cc(-c2ccc(-c3cncc(Cl)c3N3CCC4(CCNC4=O)CC3)cc2)cn1 | COLO 205 | gene expression, microarray, refers to: FOXM1 mRNA | – | concentration not given, 2 h | reference: untreated cells | log2 fold change | -1.77 |
| O=C(O)CC[C@H](NC(=O)N[C@@H](CCCCNC(=O)[C@H](Cc1ccc2ccccc2c1)NC(=O)CCCCCNC(=O)CN1CCN(CC(=O)O)CCN(CC(=O)O)CCN(CC(=O)O)CC1)C(=O)O)C(=O)O [gallium-68 labelled] | – | gamma counting | mouse, 22Rv1 xenograft, bone | intravenous, 3.7 MBq, 2 h | – | tissue uptake | 3.45 ± 0.5 %ID/g |
| CC[C@H](C)[C@@H]([C@@H](CC(=O)N1CCC[C@H]1[C@H](OC)[C@@H](C)C(=O)N[C@H](C)[C@@H](O)c1ccccc1)OC)N(C)C(=O)[C@@H](NC(=O)[C@H](C(C)C)N(C)C(=O)OCc1ccc(NC(=O)[C@H](CCCNC(N)=O)NC(=O)[C@@H](NC(=O)CCCCCN2C(=O)CC(SC[C@H](NC(=O)[C@H](CC(=O)O)NC(=O)[C@H](CCCNC(=N)N)NC(=O)[C@H](CC(=O)O)NC(=O)CCCCn3cc(CCCC(=O)Nc4nnc(S(N)(=O)=O)s4)nn3)C(=O)O)C2=O)C(C)C)cc1)C(C)C (stereo partly drawn) | – | LC-MS, refers to: intact conjugate | mouse serum | 100 µg/mL, 37 °C | – | half-life | 11.2 h |
| O=C(c1ccc(C2CCCCC2)cc1)N1CC(O)C1 | – | hepatocyte stability | cryopreserved rat hepatocytes | 1 µM | – | hepatic clearance | 48 mL/min/kg |
| C[C@@H](O)[C@@H](CO)NC(=O)[C@@H](CCCNC(=N)N)NC(=O)[C@@H]1CCCN1C(=O)[C@@H]1CSSC[C@H](NC(=O)[C@H](Cc2ccccc2)NC(=O)CN2CCN(CC(=O)O)CCN(CC(=O)O)CCN(CC(=O)O)CC2)C(=O)N[C@@H](Cc2ccc(O)cc2)C(=O)N[C@@H](Cc2ccccc2)C(=O)N[C@@H](CCC(N)=O)C(=O)N[C@@H](CC(N)=O)C(=O)N1 [gallium-68 labelled] | – | – | normal saline | 4 h, room temperature | – | radiochemical purity | > 99% |
| CC(C)C[C@H](NC(=O)C[C@H](O)[C@H](CC(C)C)NC(=O)[C@H](Cc1c[nH]cn1)NC(=O)CNC(=O)[C@@H](NC(=O)[C@H](C)NC(=O)[C@H](Cc1c[nH]c2ccccc12)NC(=O)[C@H](CCC(N)=O)NC(=O)[C@@H](Cc1ccccc1)NC(=O)COCCOCCNC(=O)CCC(C(=O)O)N1CCN(CC(=O)O)CCN(CC(=O)O)CCN(CC(=O)O)CC1)C(C)C)C(N)=O (stereo partly drawn) [lutetium-177 labelled] | – | – | BALB/c nu/nu mice, brain | intravenous, 750 pmol, 1 h, together with: PA 300 µg | – | tissue uptake | 0.03 ± 0.02 %ID/g |
| CC(C)[C@H](NC(=O)[C@H](Cc1ccc(O)cc1)NC(=O)[C@H](Cc1ccc(O)cc1)NC(=O)[C@@H]1CCCN1C(=O)[C@H](CCC(=O)O)NC(=O)[C@H](CCC(=O)O)NC(=O)[C@H](Cc1c[nH]c2ccccc12)NC(=O)[C@@H]1CCCN1C(=O)[C@@H](NC(=O)[C@H](CCC(N)=O)NC(=O)c1ccc2c(c1)C(=O)OC21c2ccc(O)cc2Oc2cc(O)ccc21)C(C)C)C(=O)N[C@H](C(=O)N[C@@H](CCCCN)C(=O)N[C@@H](CCCCN)C(=O)N[C@@H](CO)C(=O)N[C@@H](CO)C(=O)NCC(=O)NCC(N)=O)C(C)C | – | refers to: total compound | human, plasma | intravenous infusion, 189.6 mg, 1 h | – | plasma concentration | 1660 ng/mL |
| COc1cccc2c1C(=O)c1c(O)c3c(c(O)c1C2=O)C[C@@](O)(C(=O)CO)C[C@@H]3O[C@H]1C[C@H](NC(=O)[C@@H]2CCCN2C(=O)CNC(=O)[C@@H](N)CC(C)C)[C@H](O)[C@H](C)O1 | – | – | healthy mouse, plasma | intravenous, 849.5 mg/kg PhAc-ALGP-Dox | – | AUC | 1.32 µM·h |
| NS(=O)(=O)c1cccc(-c2ccc(C3CCCCC3)cc2)c1 | – | liver microsome stability | cynomolgus liver microsomes | 1 µM | – | hepatic clearance | 19 mL/min/kg |

Excerpt of the above:
| SMILES | target or system | test | test system | setting | how to read | endpoint | value |
| --- | --- | --- | --- | --- | --- | --- | --- |
| CC(C)[C@H](NC(=O)[C@@H](NC(=O)CCCc1cn(CC(O)CN2CCN(CC(=O)O)CCN(CC(=O)O)CCN(CC(=O)O)CC2)nn1)[C@@H](C)O)C(=O)N[C@@H](CCCNC(=N)N)C(=O)N[C@H](C(=O)N[C@@H](CO)C(=O)N[C@@H](C)C(=O)N[C@@H](CC(=O)O)C(=O)O)[C@@H](C)O (stereo partly drawn) | – | – | healthy male humans, plasma | intravenous bolus, 0.08 mmol/kg | – | volume of distribution | 0.237 ± 0.0479 L/kg |
